Results from different studies.
A part holds a random share of what one study measured.
Sequence of UniProt P15735 (whole entry, looked up): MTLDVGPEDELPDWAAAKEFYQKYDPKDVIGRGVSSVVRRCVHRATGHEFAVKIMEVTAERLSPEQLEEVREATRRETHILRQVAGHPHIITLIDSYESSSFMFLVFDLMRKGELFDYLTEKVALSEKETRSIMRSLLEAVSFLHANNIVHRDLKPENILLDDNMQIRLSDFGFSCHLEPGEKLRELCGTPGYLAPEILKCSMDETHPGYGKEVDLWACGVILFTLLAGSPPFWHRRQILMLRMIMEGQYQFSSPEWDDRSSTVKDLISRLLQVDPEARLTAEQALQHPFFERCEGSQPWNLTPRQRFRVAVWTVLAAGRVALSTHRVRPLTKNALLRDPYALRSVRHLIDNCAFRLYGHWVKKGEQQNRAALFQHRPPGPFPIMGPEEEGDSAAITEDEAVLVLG
Sequence of UniProt Q16584 (whole entry, looked up): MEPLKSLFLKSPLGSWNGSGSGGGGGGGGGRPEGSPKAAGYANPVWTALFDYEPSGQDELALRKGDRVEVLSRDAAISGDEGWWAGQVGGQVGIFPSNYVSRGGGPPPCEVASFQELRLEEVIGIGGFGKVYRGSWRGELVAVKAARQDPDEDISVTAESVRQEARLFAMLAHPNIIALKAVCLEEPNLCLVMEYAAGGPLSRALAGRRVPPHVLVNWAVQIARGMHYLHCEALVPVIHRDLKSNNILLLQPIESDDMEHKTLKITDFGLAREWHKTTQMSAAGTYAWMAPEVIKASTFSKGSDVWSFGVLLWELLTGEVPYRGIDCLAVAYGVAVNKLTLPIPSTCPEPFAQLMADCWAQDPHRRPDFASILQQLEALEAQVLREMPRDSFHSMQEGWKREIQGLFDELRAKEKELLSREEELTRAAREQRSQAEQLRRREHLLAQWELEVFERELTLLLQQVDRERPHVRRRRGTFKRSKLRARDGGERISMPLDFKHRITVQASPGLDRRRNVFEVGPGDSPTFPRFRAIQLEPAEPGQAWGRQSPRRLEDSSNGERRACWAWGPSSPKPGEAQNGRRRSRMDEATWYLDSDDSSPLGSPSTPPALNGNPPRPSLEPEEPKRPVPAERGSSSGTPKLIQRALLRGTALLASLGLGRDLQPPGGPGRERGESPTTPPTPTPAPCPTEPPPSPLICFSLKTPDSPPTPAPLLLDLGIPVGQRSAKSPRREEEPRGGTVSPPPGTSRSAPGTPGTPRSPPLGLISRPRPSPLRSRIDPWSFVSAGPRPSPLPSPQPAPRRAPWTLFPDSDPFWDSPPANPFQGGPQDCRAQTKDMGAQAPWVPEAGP
Sequence of UniProt Q16620 (whole entry, looked up): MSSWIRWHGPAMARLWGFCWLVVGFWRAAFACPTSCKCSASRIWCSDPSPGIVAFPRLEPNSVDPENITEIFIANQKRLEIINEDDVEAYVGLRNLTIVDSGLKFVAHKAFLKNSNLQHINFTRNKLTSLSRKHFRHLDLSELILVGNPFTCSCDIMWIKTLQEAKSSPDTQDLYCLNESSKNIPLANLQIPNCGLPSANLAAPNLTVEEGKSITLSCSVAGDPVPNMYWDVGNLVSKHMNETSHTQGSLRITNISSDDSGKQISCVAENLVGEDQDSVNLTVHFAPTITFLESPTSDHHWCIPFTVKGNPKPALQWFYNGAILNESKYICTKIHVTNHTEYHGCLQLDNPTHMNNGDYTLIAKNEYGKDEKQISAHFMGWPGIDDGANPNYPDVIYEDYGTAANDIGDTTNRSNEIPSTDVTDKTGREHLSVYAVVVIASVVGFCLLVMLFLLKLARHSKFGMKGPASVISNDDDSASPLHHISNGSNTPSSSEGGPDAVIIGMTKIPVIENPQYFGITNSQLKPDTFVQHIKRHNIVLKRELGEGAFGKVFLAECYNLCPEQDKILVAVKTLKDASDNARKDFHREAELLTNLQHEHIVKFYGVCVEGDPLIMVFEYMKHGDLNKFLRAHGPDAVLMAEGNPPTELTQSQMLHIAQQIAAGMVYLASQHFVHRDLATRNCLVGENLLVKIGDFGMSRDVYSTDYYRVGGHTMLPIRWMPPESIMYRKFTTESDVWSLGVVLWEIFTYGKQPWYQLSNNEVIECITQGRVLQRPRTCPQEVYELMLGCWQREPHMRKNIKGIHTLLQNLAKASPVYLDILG
Sequence of UniProt Q05655 (whole entry, looked up): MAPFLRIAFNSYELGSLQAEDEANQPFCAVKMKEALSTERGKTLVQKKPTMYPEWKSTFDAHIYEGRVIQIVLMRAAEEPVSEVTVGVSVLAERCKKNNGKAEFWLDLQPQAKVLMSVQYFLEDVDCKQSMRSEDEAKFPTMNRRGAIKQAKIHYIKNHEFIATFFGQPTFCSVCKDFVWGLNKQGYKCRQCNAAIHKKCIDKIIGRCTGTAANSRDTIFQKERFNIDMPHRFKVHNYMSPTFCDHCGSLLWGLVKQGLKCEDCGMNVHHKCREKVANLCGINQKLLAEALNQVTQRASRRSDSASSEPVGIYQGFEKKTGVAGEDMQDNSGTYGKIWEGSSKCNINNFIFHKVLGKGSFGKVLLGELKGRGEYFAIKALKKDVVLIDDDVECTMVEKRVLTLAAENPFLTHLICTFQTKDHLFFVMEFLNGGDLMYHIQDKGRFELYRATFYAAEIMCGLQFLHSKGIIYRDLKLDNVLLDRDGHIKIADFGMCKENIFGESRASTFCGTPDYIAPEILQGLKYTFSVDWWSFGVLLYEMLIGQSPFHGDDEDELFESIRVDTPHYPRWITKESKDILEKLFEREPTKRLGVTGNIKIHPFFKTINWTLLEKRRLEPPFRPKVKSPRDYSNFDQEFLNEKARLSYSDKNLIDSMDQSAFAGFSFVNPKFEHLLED
Sequence of UniProt Q8TDC3 (whole entry, looked up): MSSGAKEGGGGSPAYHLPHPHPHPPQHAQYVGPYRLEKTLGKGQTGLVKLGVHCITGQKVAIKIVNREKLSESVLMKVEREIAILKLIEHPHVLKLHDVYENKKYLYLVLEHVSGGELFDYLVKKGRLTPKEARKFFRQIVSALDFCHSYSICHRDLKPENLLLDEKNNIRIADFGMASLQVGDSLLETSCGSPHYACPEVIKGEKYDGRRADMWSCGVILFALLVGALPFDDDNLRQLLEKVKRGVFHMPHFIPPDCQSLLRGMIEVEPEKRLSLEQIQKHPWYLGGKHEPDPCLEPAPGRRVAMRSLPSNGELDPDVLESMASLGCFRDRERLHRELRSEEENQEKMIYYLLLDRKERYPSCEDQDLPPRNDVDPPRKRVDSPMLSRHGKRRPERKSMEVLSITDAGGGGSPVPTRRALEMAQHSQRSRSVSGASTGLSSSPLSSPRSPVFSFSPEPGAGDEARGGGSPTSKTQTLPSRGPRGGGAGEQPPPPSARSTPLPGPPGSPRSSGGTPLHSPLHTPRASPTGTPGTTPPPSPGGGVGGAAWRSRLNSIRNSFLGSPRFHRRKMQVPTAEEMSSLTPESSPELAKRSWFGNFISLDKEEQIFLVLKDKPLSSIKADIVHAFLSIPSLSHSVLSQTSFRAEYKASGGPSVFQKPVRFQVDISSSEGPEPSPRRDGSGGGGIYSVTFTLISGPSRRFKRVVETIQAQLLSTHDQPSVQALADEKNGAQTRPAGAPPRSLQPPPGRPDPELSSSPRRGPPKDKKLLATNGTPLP
Sequence of UniProt P29317 (whole entry, looked up): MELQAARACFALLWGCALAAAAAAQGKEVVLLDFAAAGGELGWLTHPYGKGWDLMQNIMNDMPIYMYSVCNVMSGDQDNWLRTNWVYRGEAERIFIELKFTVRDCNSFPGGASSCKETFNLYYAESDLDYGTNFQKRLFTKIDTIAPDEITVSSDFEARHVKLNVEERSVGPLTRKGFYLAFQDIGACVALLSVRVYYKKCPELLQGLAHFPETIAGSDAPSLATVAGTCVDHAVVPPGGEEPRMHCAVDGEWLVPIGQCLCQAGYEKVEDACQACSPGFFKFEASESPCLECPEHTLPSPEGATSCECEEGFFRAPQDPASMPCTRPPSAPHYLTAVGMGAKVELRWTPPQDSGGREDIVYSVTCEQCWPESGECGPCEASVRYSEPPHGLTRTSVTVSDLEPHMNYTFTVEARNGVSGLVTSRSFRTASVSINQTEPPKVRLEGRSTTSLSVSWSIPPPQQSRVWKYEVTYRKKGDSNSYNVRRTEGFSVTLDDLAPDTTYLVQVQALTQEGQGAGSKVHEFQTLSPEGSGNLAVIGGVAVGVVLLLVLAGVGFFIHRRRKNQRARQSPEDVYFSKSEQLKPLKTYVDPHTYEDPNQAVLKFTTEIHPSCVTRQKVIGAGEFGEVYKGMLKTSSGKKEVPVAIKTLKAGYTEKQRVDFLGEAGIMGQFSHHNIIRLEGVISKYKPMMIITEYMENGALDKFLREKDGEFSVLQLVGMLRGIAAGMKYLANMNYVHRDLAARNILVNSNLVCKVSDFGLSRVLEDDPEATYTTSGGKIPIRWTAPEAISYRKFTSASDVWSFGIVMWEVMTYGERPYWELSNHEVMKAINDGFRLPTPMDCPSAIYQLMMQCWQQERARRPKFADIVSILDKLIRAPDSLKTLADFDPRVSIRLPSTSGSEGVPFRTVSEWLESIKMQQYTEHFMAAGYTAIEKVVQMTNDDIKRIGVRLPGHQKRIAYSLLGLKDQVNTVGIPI

Set 1 — read-out: enzyme activity; action: inhibitor; concentration: 1 µM
Compound: CC#CC(=O)N1CCC[C@H]1c1nc(-c2ccc(C(=O)Nc3ccccn3)cc2)c2c(N)nccn12
| target | inhibition [%] |
| --- | --- |
| GRK2 (Homo sapiens, UniProt P25098) | 0 |
| Myosin-IIIb (MYO3B, Homo sapiens, UniProt Q8WXR4) | 12 |
| RIOK2 (Homo sapiens, UniProt Q9BVS4) | 26 |
| PHKG2 (Homo sapiens, UniProt P15735) | 0 |
| CDK7 (Homo sapiens, UniProt P50613) | 61 |
| FLT1 (Homo sapiens, UniProt P17948) | 19 |
| BMPR1A (Homo sapiens, UniProt P36894) | 0 |
| GRK3 (Homo sapiens, UniProt P35626) | 0 |
| EPHA2 (Homo sapiens, UniProt P29317) | 7 |
| CHEK2 (Homo sapiens, UniProt O96017) | 0 |
| Tyrosine-protein kinase ABL1, non-phosphorylated (ABL1, Homo sapiens, UniProt P00519, F317L) | 12 |
| GRK7 (Homo sapiens, UniProt Q8WTQ7) | 6 |
| MAP3K15 (Homo sapiens, UniProt Q6ZN16) | 0 |
| TXK (Homo sapiens, UniProt P42681) | 78 |
| ACVRL1 (Homo sapiens, UniProt P37023) | 2 |

Set 2 — technique: competition with immobilised ligand; concentration: 1 µM
Structure (SMILES): COc1cc(-c2cn(C3CCc4c(F)cccc4N(CC(F)(F)F)C3=O)nn2)ccc1-n1cnc(C)c1 (stereo not shown)
| target | assay | remaining binding [%] |
| --- | --- | --- |
| EGFR (Homo sapiens, UniProt P00533, L861Q) | cell-free assay | 100 |
| KIT (Homo sapiens, UniProt P10721, D816V) | cell-free assay | 100 |
| DDR1 (Homo sapiens, UniProt Q08345) | cell-free assay | 100 |
| PIK3CA (Homo sapiens, UniProt P42336, H1047Y) | cell-free assay | 100 |
| PRKCD (Homo sapiens, UniProt Q05655) | cell-free assay | 100 |
| MAP4K4 (Homo sapiens, UniProt O95819) | binding | 0 |
| MAP3K11 (Homo sapiens, UniProt Q16584) | cell-free assay | 100 |
| TAOK1 (Homo sapiens, UniProt Q7L7X3) | cell-free assay | 100 |
| NTRK2 (Homo sapiens, UniProt Q16620) | cell-free assay | 92 |
| PIK3C2B (Homo sapiens, UniProt O00750) | cell-free assay | 100 |
| STK4 (Homo sapiens, UniProt Q13043) | cell-free assay | 100 |
| MYLK (Homo sapiens, UniProt Q15746) | cell-free assay | 81 |
| ROCK1 (Homo sapiens, UniProt Q13464) | cell-free assay | 100 |
| DCLK3 (Homo sapiens, UniProt Q9C098) | cell-free assay | 100 |
| PIK3CD (Homo sapiens, UniProt O00329) | cell-free assay | 100 |
| Ribosomal protein S6 kinase alpha-3, N-terminal kinase domain (RPS6KA3, Homo sapiens, UniProt P51812) | cell-free assay | 100 |
| BRSK1 (Homo sapiens, UniProt Q8TDC3) | cell-free assay | 92 |
| CDKL5 (Homo sapiens, UniProt O76039) | cell-free assay | 91 |

Set 3 — read-out: enzyme activity; action: inhibitor; concentration: 10 µM
Target: Calcium/calmodulin-dependent protein kinase type II subunit alpha (CAMK2A, Homo sapiens, UniProt Q9UQM7)
Sequence of UniProt Q9UQM7 (whole entry, looked up): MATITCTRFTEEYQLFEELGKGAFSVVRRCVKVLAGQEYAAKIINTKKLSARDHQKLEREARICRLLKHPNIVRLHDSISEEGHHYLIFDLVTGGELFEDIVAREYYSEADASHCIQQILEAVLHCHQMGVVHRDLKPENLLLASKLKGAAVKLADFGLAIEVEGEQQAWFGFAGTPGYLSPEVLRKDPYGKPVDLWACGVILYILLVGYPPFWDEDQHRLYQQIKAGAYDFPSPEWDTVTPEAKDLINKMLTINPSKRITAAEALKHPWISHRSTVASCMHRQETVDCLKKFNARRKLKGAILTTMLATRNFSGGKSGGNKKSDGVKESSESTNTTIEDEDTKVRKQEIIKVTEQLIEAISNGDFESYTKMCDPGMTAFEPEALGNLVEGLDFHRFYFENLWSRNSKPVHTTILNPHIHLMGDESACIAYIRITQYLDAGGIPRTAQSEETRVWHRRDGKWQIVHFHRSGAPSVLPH
| Compound | inhibition |
| --- | --- |
| CC(C)=CCC[C@](C)(O[C@@H]1O[C@H](CO)[C@@H](O)[C@H](O)[C@H]1O)[C@H]1CC[C@]2(C)[C@@H]1[C@H](O)C[C@@H]1[C@@]3(C)CC[C@H](O[C@@H]4O[C@H](CO)[C@@H](O)[C@H](O)[C@H]4O)C(C)(C)[C@@H]3CC[C@]12C | -1% |
| OC[C@H]1O[C@@H](Oc2cc(O)cc(/C=C/c3ccc(O)c(O)c3)c2)[C@H](O)[C@@H](O)[C@@H]1O | -30% |
| O=C(/C=C/c1ccc(O)cc1)NCCc1ccc(O)cc1 | -15% |
| COC(=O)N[C@@H](C)CNc1nccc(-c2cn(C(C)C)nc2-c2cc(Cl)cc(NS(C)(=O)=O)c2F)n1 | -2% |
| C[C@@H](O)[C@H](N)C(=O)O | 16% |
| CCN[C@@H]1C[C@H](N)[C@@H](O[C@H]2OC(CN)=CC[C@H]2N)[C@H](O)[C@H]1O[C@H]1OC[C@](C)(O)[C@H](NC)[C@H]1O | 6% |
| COc1cc(CCC(=O)O)cc(OC)c1OC | -13% |
| CCCCC(CC)COC(=O)CC(C(=O)OCC(CC)CCCC)S(=O)(=O)O (stereo not shown) | -14% |

Set 4 — read-out: enzyme activity; action: inhibitor; concentration: 0.5 µM; baseline: control
Target: Serine/threonine-protein kinase VRK1 (VRK1, Homo sapiens, UniProt Q99986)
Construct (Q99986 1-396): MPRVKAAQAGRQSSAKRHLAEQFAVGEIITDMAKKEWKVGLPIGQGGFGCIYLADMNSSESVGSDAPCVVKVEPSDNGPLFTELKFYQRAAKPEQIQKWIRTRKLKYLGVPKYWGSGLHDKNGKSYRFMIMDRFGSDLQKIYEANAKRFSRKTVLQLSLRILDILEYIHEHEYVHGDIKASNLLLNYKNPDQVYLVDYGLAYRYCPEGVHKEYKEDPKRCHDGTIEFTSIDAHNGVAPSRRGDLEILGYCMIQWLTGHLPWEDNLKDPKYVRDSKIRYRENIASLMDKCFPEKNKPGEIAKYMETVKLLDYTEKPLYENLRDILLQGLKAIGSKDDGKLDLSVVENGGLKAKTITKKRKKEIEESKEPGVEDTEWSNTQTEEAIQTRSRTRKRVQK
| Compound | remaining activity [%] |
| --- | --- |
| O=c1cc(N2CCOCC2)oc2c1ccc1ccccc12 | 93.3 |
| Cn1cc(/C=C2\C(=O)Nc3ccc(S(N)(=O)=O)cc32)c2ccccc21 | 103 |
| Cc1nc(Nc2ncc(C(=O)Nc3c(C)cccc3Cl)s2)cc(N2CCN(CCO)CC2)n1 | 97.7 |
| Nc1[nH]nc2nnc(-c3c(-c4ccccc4)nn4ccccc34)cc12 | 92.2 |
| CC(C)c1nn(-c2c(Cl)cccc2Cl)c2nc(Cc3ccc(OCCO)cc3)[nH]c(=O)c12 | 103 |
| CCC(=O)Nc1ccc2ncnc(Nc3cccc(Br)c3)c2c1 | 94.4 |
| COc1cc2ncnc(Nc3ccc(OCc4ccccc4)cc3)c2cc1OC | 89 |
| O=C1NC(=O)/C(=C/c2ccc3nccnc3c2)S1 | 94.9 |
| CS(=O)(=O)CCNCc1ccc(-c2ccc3ncnc(Nc4ccc(OCc5cccc(F)c5)c(Cl)c4)c3c2)o1 | 101 |
| COc1ccc(-c2cnc3c(-c4ccsc4)cnn3c2)cc1 | 105 |
| COc1cc2ncc(-c3ccccc3)nc2cc1OC | 106 |
| COc1cc2ncnc(N3CCN(C(=O)Nc4ccc(Oc5ccccc5)cc4)CC3)c2cc1OC | 77.4 |
| CN(C)CCCn1cc(C2=C(c3c[nH]c4ccccc34)C(=O)NC2=O)c2ccccc21 | 95.5 |
| COc1ccc(Cl)cc1NC(=O)Nc1cc(C)nc2ccccc12 | 84.6 |
| CCOc1cc2ncnc(Nc3cccc(Br)c3)c2cc1OCC | 101 |
| Cn1cnc2cc3c(Nc4cccc(Br)c4)ncnc3cc21 | 100 |
| CCN1/C(=C/C(C)=O)Sc2ccc(OC)cc21 | 98.2 |
| Cc1ccc(NC(=O)c2ccc(CN3CCN(C)CC3)cc2)cc1Nc1nccc(-c2cccnc2)n1 | 96.7 |
| CC(C)[C@H](CO)Nc1nc(Nc2cccc(Cl)c2)c2ncn(C(C)C)c2n1 | 99.5 |
| O=C(Nc1ccc(Cl)cc1)c1ccccc1NCc1ccncc1 | 104 |

Some of these lines once more (set 1):
| target | inhibition [%] |
| --- | --- |
| GRK7 (Homo sapiens, UniProt Q8WTQ7) | 6 |
| CDK7 (Homo sapiens, UniProt P50613) | 61 |
| ACVRL1 (Homo sapiens, UniProt P37023) | 2 |
| CHEK2 (Homo sapiens, UniProt O96017) | 0 |
